Experimental data collected from several papers.
A part holds a random share of what one study measured. Substitutions count along the parent as printed.

Series 1 — method: Sort-seq; refers to: YFP reporter; medium: E. coli; setting: PhoQ-PhoP variant library; with: 10 µM Mg2+; baseline: high Mg2+ state; direction: higher = stronger signaling
Substance: PhoQ, residues 284 288 289 292 302 303 GNNTDL
target	fold induction
PhoP, residues 12 14 15 18 19 TQCLL (Escherichia coli, UniProt P23836)	1.75
PhoP, residues 12 14 15 18 19 ICWRQ (Escherichia coli, UniProt P23836)	6.53
PhoP, residues 12 14 15 18 19 VHTVL (Escherichia coli, UniProt P23836)	2.78

Series 2 — method: RNA Bind-n-Seq; form: RNA; medium: in vitro; concentration: not given; baseline: input RNA pool; direction: higher = stronger binding
Target: RING finger protein unkempt homolog, zinc fingers 1-6, GST-SBP tag (UNK, Homo sapiens, UniProt Q9C0B0, residues 30-357)
Sequence of UniProt Q9C0B0 (30-357, looked up): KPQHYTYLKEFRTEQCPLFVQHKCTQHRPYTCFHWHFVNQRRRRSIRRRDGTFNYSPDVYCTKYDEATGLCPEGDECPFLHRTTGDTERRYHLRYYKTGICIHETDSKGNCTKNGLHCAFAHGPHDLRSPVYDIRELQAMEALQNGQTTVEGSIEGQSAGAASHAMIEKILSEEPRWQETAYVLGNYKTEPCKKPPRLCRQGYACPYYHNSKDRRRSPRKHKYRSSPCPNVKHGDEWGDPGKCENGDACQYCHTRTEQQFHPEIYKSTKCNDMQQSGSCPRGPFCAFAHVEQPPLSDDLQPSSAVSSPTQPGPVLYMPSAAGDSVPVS
Setting: RNA with constant flanks, human and mouse sites, ends assumed
Constant ends, left off below: GGGAGUUCUACAGUCCGACGAUC … CAACAGAGGAUUGAGCAUCA
Sequence	bound/input enrichment [ratio]
GGGACAGGGGUAGUGUUCCUGGUUUUGGUGGGGUUUGCCUUUAGUUUAAUUUUCCUUUUCUAGCUUCCCUUUGCCGGCUGGUGCGUACGUUGUAGUCCCCCGAGGCCAUGUCAGGAGACG	7.25
CUGCUGAUCAGAAGCCAGAAUGUCGGCCAUACUGGGAAAAGGAUGAUGCUUCGAUGCCUCUGCCGUUUGACCUCACAGACAUCGUUUCAGAACUCAGAGGUCAGCUUCUGGAAGCAAAAC	0.254
AAAGAAGAGGCCAAAACUUCAAAUCCAACUUCUUCACUAACUUCUCUUUCUGUGGCACCAACAUUCAGCCCAAAUAUAACUCUGGGACCCACCUAUUUAACCACUGUCAAUUCUUCAGAC	0.28
AGACCAUGAAUUAUGGAAUUUCCUAAAUGAAGCAUUCAGGAAUGGAAUGAGAGAAUGUCACAUAGAAAAUAAAUGAUUUUUAAGUUAUGUCUAUUAAUUUGACUCUAGAUAUAUAUAUUU	19.9
UCUUCCUUUCCUUCUGUCUGUCUGACUCCUGGGUCUGUGCGCCAUGGCAUGAGUGUUUUCUAGUAGUAGACUGGAGUAGUAGACUGUUUCUAAGAACAGAUGAUCUGGUUCCUGAUGUGU	0.626
GUGACAGAAAUUCCUAAAGAAGAGAAGGACCCUGGAAUGGGUGCAAUGGGUGGCAUGGGAGGGGGUAUGGGAGGCGGCAUGUUCUAACUCCUAGAGUAGUGCUUUGCCCUUAUCAAUGAA	0.321
UGUGAAACCCAAAAAUGGACUGUGAACGGACAACUGAGGGUUGGGUUUUUUACCACCAAACUGGUUCCUUCAGGCUCAGAGUUAACGUUUGACUAUCAGUUCCAGAGAUAUGGAAAAGAA	0.284
AGUUACAGUUAUAUUGCUAUGAUGUUAACAAUGCCCAAAAGCAAGUUGGGGAAUAAAGUGGACUUAUAUUUCCACAUCCUAGCCCAUCACUGAAGGCAGUCAGGGCAGGAACCUGAGACU	0.185

Series 3 — target: CCND1, cyclin fold, Cln2 fusion (human); method: yeast growth competition, sequencing; medium: yeast; setting: weak parent motif; baseline: not given; direction: higher = stronger binding
Parent: EXO1 docking peptide (human); KPECGRVQRAIFQ
Substitution	normalised enrichment score
KPECGAVQRAIFQ [R6A]	-0.21
KPECARVQRAIFQ [G5A]	-0.29
KPECGRAQRAIFQ [V7A]	0.372
APECGRVQRAIFQ [K1A]	-0.0914
KPECGRVQRAIAQ [F12A]	0.0967
KPEAGRVQRAIFQ [C4A]	0.124

Series 4 — method: RNA Bind-n-Seq; form: RNA; medium: in vitro; concentration: 365 nM; baseline: no-protein control; direction: higher = stronger binding
Target: RNA binding protein fox-1 homolog 2, RRM domain, GST-SBP tag (RBFOX2, Homo sapiens, UniProt O43251-10, residues 100-194)
Setting: natural RNA segment, single round, ends assumed
Constant ends, left off below: GGGAGUUCUACAGUCCGACGAUC … UGGAAUUCUCGGGUGCCAA
Construct (chain): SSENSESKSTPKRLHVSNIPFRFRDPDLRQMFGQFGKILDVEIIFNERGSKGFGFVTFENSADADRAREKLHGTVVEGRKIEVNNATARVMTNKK
Sequence	RBNS enrichment (R)
CUCACAAAAAAAAUCCUGCUUGUAUUCAGUUUCAAACUUUAUUAGUCUCACUUUUAAUUAUAAAACCAGAAAGCUGCAAUUUCUUUUCCCUCUACCCCUUAUUUGUUGGC	0.804
GUUCUCUCCCAUCCUUGCCCCUGGUUCAGGAGCCAUUCUACCUGCCUCAGUGGCCAGGCGCAAGGCUACAGGUGCAGUCACCUGUUCCCGGCCACCUUCCCUCCCAUCUU	0.3
UUGCUUGAGCAACGACUGAGGGCUGCCAGCUUUUGCUGACAAGGUAGGAUGGGACCCCCAAUAAGUGGGUAUGGAUAUAUUUUUUUUUGUCUCUGUUCUGUUUAAACUUA	0.821
GGGCAUUCACAACUCUUGAGUUUGGUGUUCAGGCAUCAUUAUUAAAAAGUGGAGUCCUAUGUACCAGACUGAGUUUUUACAAAUGAUUUGCAGGCUAGACAUAACCCACU	0.3
AGGGAUCUCUGGUCCCCAGGAGACCUUGGGGGCCAGGCAGGUAAGGAUCAGGGGUGAUAGGGGAGAGCAAUUACUUUGUUCACUGUAUGCACCCGCGGGGGCCUGGGAGU	0.362
UAUCUUUCCUUUUGUUUACAACUGUUAAAAAACCUCAAAAUAGUUCUCUUCAAAAGAAGAGAGAUUCCAAGCAACCCAUCUUUCUUCAGUAUGUAUGUUCUGUACAUACU	0.319
UCAAACCUGUGGCCACUCUAUAUGCACUUUGUUUACUCUUUAUACAAAUAAAUAUACUAAAGACUUUCAUGCAUAUGCCUUUUAAUAUUAAGAUUUCAUUUUCAAAGCAU	0.788
CCACAACAGCUGGUGGGAGGGUGGGGUGGGCCUGGGUCCAGACCAGGCUCGCUGCUCUCUGGGCCUCAGUUUCCCCACCUGCCAGCGGGCUCGGCCCUGUCCUCCUCACA	0.208

Excerpt of the above (series 2):
Sequence	bound/input enrichment [ratio]
AGACCAUGAAUUAUGGAAUUUCCUAAAUGAAGCAUUCAGGAAUGGAAUGAGAGAAUGUCACAUAGAAAAUAAAUGAUUUUUAAGUUAUGUCUAUUAAUUUGACUCUAGAUAUAUAUAUUU	19.9
GUGACAGAAAUUCCUAAAGAAGAGAAGGACCCUGGAAUGGGUGCAAUGGGUGGCAUGGGAGGGGGUAUGGGAGGCGGCAUGUUCUAACUCCUAGAGUAGUGCUUUGCCCUUAUCAAUGAA	0.321
AGUUACAGUUAUAUUGCUAUGAUGUUAACAAUGCCCAAAAGCAAGUUGGGGAAUAAAGUGGACUUAUAUUUCCACAUCCUAGCCCAUCACUGAAGGCAGUCAGGGCAGGAACCUGAGACU	0.185
